# Assay results from different studies.
# Lines come from different studies, so protocols differ. Several values in a cell are separate wells, animals, samples, runs or records. ± gives the spread as reported.
Structure (SMILES),cell line,test,conditions,how to read,measurement,result
Cc1ccc2c(c1)C(=O)[C@]1(O)CCN(c3ccc4nc(C)ccc4c3)C1=N2.Cl,murine Trp53-/- cells,"Western blot, item: cleaved PARP and γH2AX",concentration not given,,protein level,increased
Cc1cc(Nc2ncc(Cl)c(Nc3ccccc3S(=O)(=O)C(C)C)n2)c(OC(C)C)cc1C1CCNCC1,CLB-BAR,"phosphoproteomics LC-MS/MS, item: BICD2 phosphorylation","200 nM, 60 min",reference: untreated,log2 fold change,-1.68
C[C@H](CCC(=O)NCCS(=O)(=O)O)[C@H]1CC[C@H]2[C@@H]3CC[C@@H]4C[C@H](O)CC[C@]4(C)[C@H]3CC[C@]12C,human ADPKD PLD cystic cholangiocytes,cell counting,"20 µM, 24 h",reference: untreated,proliferation increase,42%
CC/C(=N\NC(=O)NCc1cccc(O)c1)c1ccc(O)c(C)c1O,SK-OV-3,"Western blot, item: LATS","5 µM, 1 h, 3D gellan gum culture, unit not given",reference: β-actin,protein level,0.71 ± 0.44
Cc1nn(-c2nc3c(F)cc(F)cc3s2)c(O)c1C(c1cccc(C(F)(F)F)c1)c1c(C)nn(-c2nc3c(F)cc(F)cc3s2)c1O,THP1-Dual,IFN luciferase reporter,"80 µM, together with: HT-DNA",,inhibition,101%
CCOC(=O)C1=C(C)NC2=C(C(=O)CC(c3ccc(OC)c(OC)c3)C2)C1c1ccccc1Cl (centres unmarked),J774.A1,cytotoxicity,,,EC50,> 20 µM
O=P(O)(O)C(O)(Cn1ccnc1)P(=O)(O)O,hFOB 1.19,AlamarBlue,"1.9 µM, 48 h",reference: control,viability,100 ± 1%
CC(C)c1c(C(=O)Nc2ccccc2)c(-c2ccccc2)c(-c2ccc(F)cc2)n1CC[C@@H](O)C[C@@H](O)CC(=O)O,MDA-MB-231 BAX/BAK siRNA knockdown,"cell viability, CellTiter-Glo",,direction not given,Z score,0.943
Cc1nn(CC(F)(F)F)cc1Nc1ncc(Br)c(NCc2ccc(S(N)(=O)=O)cc2)n1,THP1-Dual,western blot,"20 µM, together with: cGAMP",reference: DMSO,phospho-TBK1 to TBK1 ratio,0.639 and 0.367 and 0.59
CCCCc1oc2ccc(NS(C)(=O)=O)cc2c1C(=O)c1ccc(OCCCN(CCCC)CCCC)cc1,human embryonic stem cell aggregates,"mRNA level, microarray, item: TGFB1","0.5 µM, 120 h","reference: untreated, down-regulated",fold change,2.2 fold
Cc1cc(-c2ccccc2)n(-c2nc(-c3ccc(Cl)cc3)c3c(NC(=O)c4ccccc4)nnc-3[nH]2)n1,MDA-MB-435,SRB,"10 µM, NCI60 single-dose screen",reference: untreated,cell growth,97.3%
COC1=CC(=O)C=C(OC)C1=O,MDA-MB-231 BAX/BAK siRNA knockdown,CellTiter-Glo,concentration not given,reference: normalised luminescence,viability,6.45% and 10.8%
c1ccc2[nH]ccc2c1,HCT-8,"RNA-seq, item: ULBP1",concentration not given,,"mRNA level, LS mean",13.2 counts per million
O=C(/C=C/C=C/C=C/C1CCCCC1)NC1=C[C@@](O)(/C=C/C=C/C=C/C(=O)NC2=C(O)CCC2=O)[C@@H]2O[C@@H]2C1=O,AGS,"cell growth, CellTiter-Glo",78 h,,GI50,19.2 µM
Cn1cc(-c2ccc(-c3cncc(Cl)c3N3CCC4(CCNC4=O)CC3)cc2)cn1,COLO 205,"gene expression, microarray, item: DEFB1 mRNA","concentration not given, 6 h",reference: untreated cells,log2 fold change,4.08
Cc1nn(-c2nc3c(F)cc(F)cc3s2)c(O)c1C(c1ccccc1C(F)(F)F)c1c(C)nn(-c2nc3c(F)cc(F)cc3s2)c1O,THP1-Dual,IFN luciferase reporter,"20 µM, together with: HT-DNA",,inhibition,87.8% and 57.9% and 58.5% and 58.4% and 88.1% and 52.7%
O=C(CCCCCCC(=O)Nc1ccccc1)NO,MDA-MB-231 BAX/BAK siRNA knockdown,"cell viability, CellTiter-Glo",,direction not given,Z score,-0.298
CCCCc1nc2c(N)nc3ccccc3c2n1Cc1ccc(CN)cc1,human PBMC,ELISA,concentration not given,reference: resiquimod,IFN-α induction,~10 fold
Cc1cc(N2CCc3c(c(C)nn3CC34CCC(NC(=O)[C@@H]5COCCN5)(CC3)CC4)C2)c2cnn(C)c2n1,human PBMC,"qRT-PCR, item: CXCL10 mRNA","100 nM, together with: ssRNA",,inhibition,99 ± 1%
CN(C)c1ncnc2c1ncn2[C@@H]1O[C@H](CO)[C@@H](O)[C@H]1O,mock-transfected cells,"TGFα shedding, agonist",10 nM,reference: unstimulated vehicle control,AP-TGFα release,-0.11% and -0.05% and -0.7%
CCOC(=O)C1=C(C)NC2=C(C(=O)OC(c3ccc(OC)c(OC)c3)C2)C1c1ccc(Cl)cc1 (mixture of isomers),J774.A1,cytotoxicity,,,EC50,> 20 µM
CO[C@@H](C)Cn1c(=O)n(C)c2cnc3ccc(-c4cncc(C(C)(C)O)c4)cc3c21,HEK293T (G4C2)66-No-ATG-GFP reporter,"RAN translation of r(G4C2)exp, fluorescence reporter",concentration not given,,inhibition,44%
COc1cc(/C=C/C(=O)N2CCC=CC2=O)cc(OC)c1OC,MDA-MB-468,"quantitative RT-PCR, item: HIF1A","30 µM, 8 h",reference: untreated cells,mRNA level,130 ± 4.5%
Cc1cnc(NC2CCOCC2)nc1-n1cnc(C(=O)NC(CN)c2cc(F)cc(Cl)c2)c1 (centres unmarked),MINO,flow cytometry,"1 µM, 48 h",,sub-G0 cells,32.4%
CCOC(=O)C1=C(C)NC2=C(C(=O)CC(c3cc(OC)c(OC)c(OC)c3)C2)C1c1ccccc1Cl (centres unmarked),J774.A1,cytotoxicity,,,EC50,> 20 µM
CC1(C)COc2ccc(F)cc2CN2c3nc4c(cnn4cc3OC[C@H]2C(F)F)C(=O)N1,Aska-SS (ALK exon 2-17 deletion),cell viability,,,Emax,76.5%
CC(C)C[C@H](NC(=O)CNC(=O)c1cc(Cl)ccc1Cl)B(O)O,BRD4-HiBiT cells,"BRD4 degradation rescue, inhibitor","24 h, together with: dBET6 500 nM",,EC50,0.0385 µM
C=CC(=O)N1CCC[C@@H](c2ccc(C(N)=O)c3[nH]ccc23)C1,TMD8 RAC2 knock-out,"calcium flux, FLIPR",,,maximal inhibition,> 60%
Cn1cc(-n2cnc3c(NCc4nc5cc(Cl)c(Cl)cc5[nH]4)nc(N4CCOCC4)nc32)cn1,MDA-MB-231,"qRT-PCR, item: FANCI","50 nM, 6 h, unit not given",reference: untreated,mRNA level,0.626
NCCCOc1cc(NC(=O)c2cccc(C(=O)Nc3cc(OCCCN)c4ccccc4n3)n2)nc2ccccc12,HT-1080,"cell viability, CellTiter-Glo",72 h,reference: IC50 HT-1080 over WI-38,selectivity ratio,1.5
CC/C(=N\NC(=O)C(C)Nc1ccccc1)c1ccc(O)c(C)c1O (centres unmarked),SK-OV-3,"Western blot, item: LATS","10 µM, 3 h, 2D culture, unit not given",reference: β-actin,protein level,0.96 ± 0.6
C=Cc1c2[n-]c(c1C)/C=c1\[n-]/c(c(C)c1C=C)=C\c1[n-]c(c(CCC(=O)O)c1C)/C=c1\[n-]c(c(C)c1CCC(=O)O)=C2.[Sn+4],SH-SY5Y,"RNA-seq, item: DKK1 mRNA","5 µM, 5 h",reference: untreated cells,fold change,2.15
Cn1cc(Nc2nccc(-c3ccc4c(c3)CN(C3COC3)CC[C@H]4NC(=O)c3cn(C(C)(C)C)nn3)n2)cn1,mouse splenic B cells,item: SAPK/JNK signalling,"30 mg/kg, IgD-activated in vivo","reference: vehicle, direction not given",pathway activation z-score,2.18
COc1cccc2c1C(=O)c1c(O)c3c(c(O)c1C2=O)C[C@@](O)(C(=O)CO)C[C@@H]3O[C@H]1C[C@H](N)[C@H](O)[C@H](C)O1,A2780 cisplatin-resistant,"cytotoxicity, WST-1","72 h, highest tested concentration",,Emax,96.1%
CCCOC(=O)C1=C(C)NC2=C(C(=O)OC(c3ccc(OC)c(OC)c3)C2)C1c1ccccc1Cl (mixture of isomers),J774.A1,cytotoxicity,,,EC50,> 20 µM
CCCCN1C[C@H](O)[C@@H](O)[C@@H](O)[C@H]1CO,sample E patient fibroblasts,"Gb3 level lowering, LC-MS/MS, item: Gb3 d18:1/24:1",216 h,,IC50,67.4 µM
CCCCC[C@H](O)/C=C/[C@H]1C(=O)C[C@H](O)[C@@H]1C/C=C\CCCC(=O)O,"HEK293-A2AR cells, SLCO2A1 knockout",HTRF cAMP,5 nM,,HTRF cAMP signal,335 a.u. and 317 a.u. and 329 a.u.
CCn1cc(-c2cc(Cn3ccnc3)cc3c2CCN([C@H](c2cc(OC)ccn2)C2CC2)C3=O)c(C(F)(F)F)n1,SW837,"cell growth, inhibitor",120 h,,EC50,> 30 µM
NS(=O)(=O)OC[C@H]1C[C@@H](Nc2ccnc3cc(-c4cccc(SC(F)(F)F)c4)nn23)[C@H](O)[C@@H]1O,BRD4-HiBiT cells,"BRD4 degradation rescue, inhibitor","4 h, 50% degradation rescued, together with: dBET6 500 nM",,EC50,0.379 µM
CCn1cc(-c2cc(Cn3ccoc3=N)cc3c2CCN([C@@H](C)c2cc(OC)ccn2)C3=O)c(C(F)(F)F)n1,MDA-MB-175-VII,"cell growth, inhibitor",120 h,,EC50,> 30 µM
Cc1nc(NC(=O)N2CCC[C@H]2C(N)=O)sc1-c1ccnc(C(C)(C)C(F)(F)F)c1,AGS,CellTiter-Glo,120 h,,Hill coefficient,2.19
COc1cnc2cccc(N3CCc4c(cc(Cn5ccnc5C)cc4-c4cn(C)nc4C(F)(F)F)C3=O)c2c1,RCM-1,"cell growth, inhibitor",120 h,,EC50,> 30 µM
CC#CC(=O)N1CCC[C@H]1c1nc(-c2ccc(C(=O)Nc3ccccn3)cc2)c2c(N)nccn12,TMD8,"calcium flux, FLIPR","1 h preincubation, together with: anti-IgM",,maximum inhibition,62.5%
CC(C)C[C@H](NC(=O)[C@H](Cc1ccccc1)NC(=O)c1cnccn1)B(O)O,BRD4-HiBiT cells,"BRD4 degradation rescue, inhibitor","2 h, together with: dBET6 500 nM",,EC50,0.132 µM
C[C@@H](O)[C@H](NC(=O)Nc1ncnc2c1ncn2[C@@H]1O[C@H](CO)[C@@H](O)[C@H]1O)C(=O)O,mock-transfected cells,"TGFα shedding, agonist",100 µM,reference: unstimulated vehicle control,AP-TGFα release,0%
CC(C)C[C@@H](C=O)NC(=O)[C@H](CC(C)C)NC(=O)[C@H](CC(C)C)NC(=O)OCc1ccccc1,BRD4-HiBiT cells,"BRD4 degradation rescue, inhibitor","24 h, together with: dBET6 500 nM",,EC50,0.144 µM
CCc1cnc(N2CCC(c3nc(COc4ccc(-n5cnnn5)cc4)cs3)CC2)nc1,"HEK-293T ATF4-mAPPLE, HRI CRISPRi knockdown",flow cytometry,"10 µM, 16 h",,ATF4-mAPPLE reporter activation,inhibited
O=C(C[C@@H](C(F)F)n1ccc(F)n1)N1CCC(O)(Cn2cnc3c(cnn3-c3ccc(F)cc3)c2=O)CC1,CHP-212 resistant,PI flow cytometry,"0.3 µM, 24 h",,G1 phase cells,73.1%
CC[C@H](C)[C@H](NC(=O)[C@H](C)NC(=O)CNC(=O)[C@H](Cc1ccccc1)NC(=O)[C@H](CC(N)=O)NC(=O)[C@H](CC(N)=O)NC(=O)[C@H](CO)NC(=O)[C@H](CO)NC(=O)[C@H](Cc1c[nH]cn1)NC(=O)[C@@H](NC(=O)[C@H](CC(C)C)NC(=O)[C@H](Cc1ccccc1)NC(=O)[C@H](CC(N)=O)NC(=O)[C@H](C)NC(=O)[C@H](CC(C)C)NC(=O)[C@H](CCCNC(=N)N)NC(=O)[C@H](CCC(N)=O)NC(=O)[C@@H](NC(=O)[C@H](C)NC(=O)[C@@H]1CSSC[C@H](NC(=O)[C@@H](N)CCCCN)C(=O)N[C@@H](CC(N)=O)C(=O)N[C@@H]([C@@H](C)O)C(=O)N[C@@H](C)C(=O)N[C@@H]([C@@H](C)O)C(=O)N1)[C@@H](C)O)C(C)C)C(=O)N[C@@H](CC(C)C)C(=O)N[C@@H](CO)C(=O)N[C@@H](CO)C(=O)N[C@H](C(=O)N[C@@H](CC(N)=O)C(=O)N[C@H](C(=O)NCC(=O)N[C@@H](CO)C(=O)N[C@@H](CC(N)=O)C(=O)N[C@H](C(=O)N[C@@H](Cc1ccc(O)cc1)C(N)=O)[C@@H](C)O)C(C)C)[C@@H](C)O,INS-1,confocal microscopy,"1 µM, unit not given",reference: control,intracellular ROS level,6.09
Cc1cccc(-c2[nH]c(CNc3ccccc3F)nc2-c2ccc3ncnn3c2)n1,RPMI-8226,"flow cytometry, item: CD212",concentration not given,reference: comparator compound alone,surface marker level,182%

# A few entries again:
Structure (SMILES),cell line,test,conditions,how to read,measurement,result
O=P(O)(O)C(O)(Cn1ccnc1)P(=O)(O)O,hFOB 1.19,AlamarBlue,"1.9 µM, 48 h",reference: control,viability,100 ± 1%
CO[C@@H](C)Cn1c(=O)n(C)c2cnc3ccc(-c4cncc(C(C)(C)O)c4)cc3c21,HEK293T (G4C2)66-No-ATG-GFP reporter,"RAN translation of r(G4C2)exp, fluorescence reporter",concentration not given,,inhibition,44%
COc1cc(/C=C/C(=O)N2CCC=CC2=O)cc(OC)c1OC,MDA-MB-468,"quantitative RT-PCR, item: HIF1A","30 µM, 8 h",reference: untreated cells,mRNA level,130 ± 4.5%
